Measurements of several laboratories.
Compare with care: the assays were run in different laboratories. ± gives the spread as reported.

SMILES = CSCC[C@H](NC(=O)[C@H](CC(=O)O)NC(=O)[C@H](CO)NC(=O)[C@H](Cc1c[nH]cn1)NC(=O)[C@H](Cc1c[nH]c2ccccc12)NC(=O)CN1CCN(CC(=O)O)CCN(CC(=O)O)CCN(CC(=O)O)CC1)C(=O)N[C@@H](CCC(=O)O)C(=O)N[C@@H](Cc1c[nH]c2ccccc12)C(=O)N[C@@H](Cc1c[nH]c2ccccc12)C(=O)N[C@@H](Cc1ccc(O)cc1)C(=O)N[C@@H](CC(C)C)C(=O)N[C@@H](CC(C)C)C(=O)NCC(=O)N[C@@H](CCCCNC(=O)COCCOCCNC(=O)CCN1C(=O)C=CC1=O)C(=O)O [copper-64 labelled]; assay = gamma counting; system = nude mice bearing BGC-823 tumours, blood; conditions = intravenous, 0.74 MBq (0.02 nmol), 4 h; tissue uptake = 6.5 %ID/g
SMILES = CSCC[C@H](NC(=O)[C@H](CC(C)C)NC(=O)[C@H](Cc1c[nH]cn1)NC(=O)CNC(=O)[C@@H](NC(=O)[C@H](C)NC(=O)[C@H](Cc1c[nH]c2ccccc12)NC(=O)[C@H](CCC(N)=O)NC(=O)CNC(=O)[C@H](CO)NC(=O)CNC(=O)CCCCCCCNC(=O)CCC(=O)Nc1ccc(CNC23CNCCNCC(N)(CNCCNC2)CNCCNC3)cc1)C(C)C)C(N)=O [copper-64 labelled]; system = female SCID mice, PC-3 xenograft, muscle; conditions = intravenous, 0.6 MBq, 24 h; tissue uptake = 0.074 ± 0.008 %ID/g
SMILES = CCCC[C@H](NC(=O)[C@H](Cc1cccs1)NC(=O)[C@H](Cc1c[nH]cn1)NC(=O)CCNC(=O)[C@@H](NC(=O)[C@H](C)NC(=O)[C@H](Cc1c[nH]c2ccccc12)NC(=O)[C@H](CCC(N)=O)NC(=O)[C@H](Cc1cccs1)NC(=O)CN1CCC(NC(=O)CN(CCN(CCN(CC(=O)O)CC(=O)O)CC(=O)O)CC(=O)O)CC1)C(C)C)C(N)=O [indium-111 labelled]; system = male Swiss nu/nu mice, PC-3 tumour, kidney; conditions = intravenous, 10 pmol, 24 h; tissue uptake = 0.6 ± 0.3 %ID/g
SMILES = CC(C)C[C@H](NC(=O)[C@H](Cc1ccc(O)cc1)NC(=O)[C@@H](CCCNC(=N)N)NC(=O)[C@@H](CO)NC(=O)[C@H](Cc1ccccc1)NC(=O)[C@H](CC1CCCCC1)NC(=O)[C@H](CC(=O)O)NC(=O)CCC(C(=O)O)N1CCCN2CCN(CCCN(CC(=O)O)CC2)CC1)C(=O)N[C@@H](Cc1c[nH]c2ccccc12)C(=O)N[C@@H](CO)C(=O)O (stereo partly drawn) [copper-64 labelled]; system = female NMRI nude mice, lung; conditions = 22 h p.i.; tissue uptake = 2 ± 0.8 %ID/g
SMILES = CSCC[C@H](NC(=O)[C@H](CC(C)C)NC(=O)[C@H](Cc1c[nH]cn1)NC(=O)CNC(=O)[C@@H](NC(=O)[C@H](C)NC(=O)[C@H](Cc1c[nH]c2ccccc12)NC(=O)[C@H](CCC(N)=O)NC(=O)CCCCCCCNC(=O)CCC(=O)Nc1ccc(CNC23CNCCNCC(N)(CNCCNC2)CNCCNC3)cc1)C(C)C)C(N)=O [copper-64 labelled]; system = female SCID mice, PC-3 xenograft, muscle; conditions = intravenous, 0.6 MBq, 24 h; tissue uptake = 0.095 ± 0.017 %ID/g
SMILES = N=C(N)NCCC[C@@H]1NC(=O)[C@H](CCCCNC(=O)CC[C@H](NC(=O)CCOCCOCCOCCOCCNC(=O)CC[C@H](NC(=O)CN2CCN(CC(=O)O)CCN(CC(=O)O)CCN(CC(=O)O)CC2)C(=O)NCCOCCOCCOCCOCCC(=O)N[C@@H](CCC(=O)NCCCC[C@@H]2NC(=O)[C@@H](Cc3ccccc3)NC(=O)[C@H](CC(=O)O)NC(=O)CNC(=O)[C@H](CCCNC(=N)N)NC2=O)C(=O)NCCCC[C@@H]2NC(=O)[C@@H](Cc3ccccc3)NC(=O)[C@H](CC(=O)O)NC(=O)CNC(=O)[C@H](CCCNC(=N)N)NC2=O)C(=O)NCCCC[C@@H]2NC(=O)[C@@H](Cc3ccccc3)NC(=O)[C@H](CC(=O)O)NC(=O)CNC(=O)[C@H](CCCNC(=N)N)NC2=O)NC(=O)[C@@H](Cc2ccccc2)NC(=O)[C@H](CC(=O)O)NC(=O)CNC1=O [indium-111 labelled]; system = female athymic nude mice, liver; conditions = intravenous, 3 µCi, 24 h, U-87 MG glioma xenograft; tissue uptake = 1.56 ± 0.37 %ID/g
SMILES = CSCC[C@H](NC(=O)[C@H](CC(=O)O)NC(=O)[C@H](CO)NC(=O)[C@H](Cc1c[nH]cn1)NC(=O)[C@H](Cc1c[nH]c2ccccc12)NC(=O)CN1CCN(CC(=O)O)CCN(CC(=O)O)CCN(CC(=O)O)CC1)C(=O)N[C@@H](CCC(=O)O)C(=O)N[C@@H](Cc1c[nH]c2ccccc12)C(=O)N[C@@H](Cc1c[nH]c2ccccc12)C(=O)N[C@@H](Cc1ccc(O)cc1)C(=O)N[C@@H](CC(C)C)C(=O)N[C@@H](CC(C)C)C(=O)NCC(=O)O [copper-64 labelled]; assay = gamma counting; system = nude mice bearing BGC-823 tumours, BGC-823 tumour; conditions = intravenous, 0.74 MBq (0.02 nmol), 4 h; tissue uptake = 0.55 %ID/g
SMILES = N=C(N)NCCC[C@@H]1NC(=O)[C@H](CCCCNC(=O)CC[C@H](NC(=O)CCOCCOCCOCCOCCNC(=O)CN2CCN(CC(=O)O)CCN(CC(=O)O)CCN(CC(=O)O)CC2)C(=O)NCCCC[C@@H]2NC(=O)[C@@H](Cc3ccccc3)NC(=O)[C@H](CC(=O)O)NC(=O)CNC(=O)[C@H](CCCNC(=N)N)NC2=O)NC(=O)[C@@H](Cc2ccccc2)NC(=O)[C@H](CC(=O)O)NC(=O)CNC1=O [indium-111 labelled]; system = athymic nude mice, female, U-87 MG glioma xenograft, bone; conditions = intravenous, 3 µCi, 4 h; tissue uptake = 0.7 ± 0.18 %ID/g
SMILES = N=C(N)NCCC[C@@H]1NC(=O)[C@H](CC(=O)NC23CNCCNCC(N)(CNCCNC2)CNCCNC3)NC(=O)[C@@H](Cc2ccccc2)NC(=O)[C@H](CC(=O)O)NC(=O)CNC1=O [copper-64 labelled]; system = male nude tumour-bearing mice, kidney; conditions = iv, 10 µCi, 24 h; tissue uptake = 2.36 ± 0.35 %ID/g
SMILES = N=C(N)NCCC[C@@H]1NC(=O)[C@H](CCCCNC(=O)CCOCCOCCOCCOCCNC(=O)CN2CCN(CC(=O)O)CCN(CC(=O)O)CCN(CC(=O)O)CC2)NC(=O)[C@@H](Cc2ccccc2)NC(=O)[C@H](CC(=O)O)NC(=O)CNC1=O [indium-111 labelled]; system = female athymic nude mice, blood; conditions = intravenous, 3 µCi, 1 h, U-87 MG glioma xenograft; tissue uptake = 0.63 ± 0.03 %ID/g
SMILES = N=C(N)NCCC[C@@H]1NC(=O)[C@H](CCCCNC(=O)CCOCCOCCOCCOCCNC(=O)CC[C@H](NC(=O)[C@H](CCCCNC(=O)c2ccc(NN)nc2)NC(=O)c2ccc(NN)nc2)C(=O)NCCOCCOCCOCCOCCC(=O)NCCCC[C@@H]2NC(=O)[C@@H](Cc3ccccc3)NC(=O)[C@H](CC(=O)O)NC(=O)CNC(=O)[C@H](CCCNC(=N)N)NC2=O)NC(=O)[C@@H](Cc2ccccc2)NC(=O)[C@H](CC(=O)O)NC(=O)CNC1=O [technetium-99m labelled]; system = female athymic nude mice, lungs; conditions = intravenous, 0.1 MBq, 1 h, U-87 MG glioma xenograft; tissue uptake = 2.93 ± 0.65 %ID/g
SMILES = N=C(N)NCCC[C@@H]1NC(=O)[C@H](CCCCNC(=O)CNC(=O)CNC(=O)CNC(=O)CC[C@H](NC(=O)CCOCCOCCOCCOCCNC(=O)CC[C@H](NC(=O)CN2CCN(CC(=O)O)CCN(CC(=O)O)CCN(CC(=O)O)CC2)C(=O)NCCOCCOCCOCCOCCC(=O)N[C@@H](CCC(=O)NCC(=O)NCC(=O)NCC(=O)NCCCC[C@@H]2NC(=O)[C@@H](Cc3ccccc3)NC(=O)[C@H](CC(=O)O)NC(=O)CNC(=O)[C@H](CCCNC(=N)N)NC2=O)C(=O)NCC(=O)NCC(=O)NCC(=O)NCCCC[C@@H]2NC(=O)[C@@H](Cc3ccccc3)NC(=O)[C@H](CC(=O)O)NC(=O)CNC(=O)[C@H](CCCNC(=N)N)NC2=O)C(=O)NCC(=O)NCC(=O)NCC(=O)NCCCC[C@@H]2NC(=O)[C@@H](Cc3ccccc3)NC(=O)[C@H](CC(=O)O)NC(=O)CNC(=O)[C@H](CCCNC(=N)N)NC2=O)NC(=O)[C@@H](Cc2ccccc2)NC(=O)[C@H](CC(=O)O)NC(=O)CNC1=O [indium-111 labelled]; system = athymic nude mice, female, U-87 MG glioma xenograft, spleen; conditions = intravenous, 3 µCi, 72 h; tissue uptake = 0.54 ± 0.22 %ID/g
SMILES = N=C(N)NCCC[C@@H]1NC(=O)[C@H](CCCCNC(=O)CNC(=O)CNC(=O)CNC(=O)CC[C@H](NC(=O)CNC(=O)CNC(=O)CNC(=O)[C@H](CCCCNC(=O)c2ccc(NN)nc2)NC(=O)c2ccc(NN)nc2)C(=O)NCC(=O)NCC(=O)NCC(=O)NCCCC[C@@H]2NC(=O)[C@@H](Cc3ccccc3)NC(=O)[C@H](CC(=O)O)NC(=O)CNC(=O)[C@H](CCCNC(=N)N)NC2=O)NC(=O)[C@@H](Cc2ccccc2)NC(=O)[C@H](CC(=O)O)NC(=O)CNC1=O [technetium-99m labelled]; system = female athymic nude mice, lungs; conditions = intravenous, 0.1 MBq, 1 h, U-87 MG glioma xenograft; tissue uptake = 3.17 ± 0.5 %ID/g
SMILES = N=C(N)NCCC[C@@H]1NC(=O)[C@H](CCCCNC(=O)CCOCCOCCOCCOCCNC(=O)CC[C@H](NC(=O)CCOCCOCCOCCOCCNC(=O)CC[C@H](NC(=O)CN2CCN(CC(=O)O)CCN(CC(=O)O)CCN(CC(=O)O)CC2)C(=O)NCCOCCOCCOCCOCCC(=O)N[C@@H](CCC(=O)NCCOCCOCCOCCOCCC(=O)NCCCC[C@@H]2NC(=O)[C@@H](Cc3ccccc3)NC(=O)[C@H](CC(=O)O)NC(=O)CNC(=O)[C@H](CCCNC(=N)N)NC2=O)C(=O)NCCOCCOCCOCCOCCC(=O)NCCCC[C@@H]2NC(=O)[C@@H](Cc3ccccc3)NC(=O)[C@H](CC(=O)O)NC(=O)CNC(=O)[C@H](CCCNC(=N)N)NC2=O)C(=O)NCCOCCOCCOCCOCCC(=O)NCCCC[C@@H]2NC(=O)[C@@H](Cc3ccccc3)NC(=O)[C@H](CC(=O)O)NC(=O)CNC(=O)[C@H](CCCNC(=N)N)NC2=O)NC(=O)[C@@H](Cc2ccccc2)NC(=O)[C@H](CC(=O)O)NC(=O)CNC1=O [indium-111 labelled]; system = athymic nude mice, female, U-87 MG glioma xenograft, spleen; conditions = intravenous, 3 µCi, 24 h; tissue uptake = 1.67 ± 0.18 %ID/g
SMILES = N=C(N)NCCC[C@H](NC(=O)[C@H](CCCCN)NC(=O)[C@H](CCC(N)=O)NC(=O)CCOCCOCCOCCNC(=O)CN1CCN(CC(=O)O)CCN(CC(=O)O)CCN(CC(=O)O)CC1)C(=O)N[C@@H](CCCCN)C(=O)N[C@@H](CCCNC(=N)N)C(=O)N[C@@H](CCCCN)C(=O)N[C@@H](CCCCN)C(=O)N[C@@H](CO)C(=O)N[C@@H](CCCNC(=N)N)C(=O)N[C@@H](Cc1ccc(O)cc1)C(=O)N[C@@H](CCCCN)C(=O)N[C@@H](CO)C(=O)O [copper-64 labelled]; system = male C57BL/6 mice, B16-F10 tumour, bone; conditions = intravenous, 60 min; tissue uptake = 1.78 ± 0.11 %ID/g

Repeated from above:
SMILES = CSCC[C@H](NC(=O)[C@H](CC(=O)O)NC(=O)[C@H](CO)NC(=O)[C@H](Cc1c[nH]cn1)NC(=O)[C@H](Cc1c[nH]c2ccccc12)NC(=O)CN1CCN(CC(=O)O)CCN(CC(=O)O)CCN(CC(=O)O)CC1)C(=O)N[C@@H](CCC(=O)O)C(=O)N[C@@H](Cc1c[nH]c2ccccc12)C(=O)N[C@@H](Cc1c[nH]c2ccccc12)C(=O)N[C@@H](Cc1ccc(O)cc1)C(=O)N[C@@H](CC(C)C)C(=O)N[C@@H](CC(C)C)C(=O)NCC(=O)O [copper-64 labelled]; assay = gamma counting; system = nude mice bearing BGC-823 tumours, BGC-823 tumour; conditions = intravenous, 0.74 MBq (0.02 nmol), 4 h; tissue uptake = 0.55 %ID/g
SMILES = N=C(N)NCCC[C@@H]1NC(=O)[C@H](CCCCNC(=O)CCOCCOCCOCCOCCNC(=O)CC[C@H](NC(=O)[C@H](CCCCNC(=O)c2ccc(NN)nc2)NC(=O)c2ccc(NN)nc2)C(=O)NCCOCCOCCOCCOCCC(=O)NCCCC[C@@H]2NC(=O)[C@@H](Cc3ccccc3)NC(=O)[C@H](CC(=O)O)NC(=O)CNC(=O)[C@H](CCCNC(=N)N)NC2=O)NC(=O)[C@@H](Cc2ccccc2)NC(=O)[C@H](CC(=O)O)NC(=O)CNC1=O [technetium-99m labelled]; system = female athymic nude mice, lungs; conditions = intravenous, 0.1 MBq, 1 h, U-87 MG glioma xenograft; tissue uptake = 2.93 ± 0.65 %ID/g
